Results of several laboratories.
Compare with care: the assays were run in different laboratories. Numbers after ± are the reported error.

Structure (SMILES)	tested on	assay	test system	setting	how to read	quantity	result
CN1CCN(C2(CNC3CCN(c4cccc(-c5cc6cc(F)ccc6[nH]5)c4)CC3)CCC2)CC1	EKVX	–	–	–	–	GI50	1.61 µM
CN1C(=O)C(C2C3=C(CC(C)(C)CC3=O)Oc3c(O)cccc32)C(=O)N(C)C1=O (stereo not drawn)	3T3-L1 preadipocytes	adipogenesis, Oil Red O staining	–	IC20, 14 days, single replicate	–	lipid content	0.547 OD492
c1ccc(C(NCCNC(c2ccccc2)c2ccccc2)c2ccccc2)cc1	kainate receptor, rat	binding	–	10 µM, Eurofins selectivity panel	–	inhibition	1%
COc1c(CCC[P+](c2ccccc2)(c2ccccc2)c2ccccc2)cc2c(c1OC)OCO2.[I-]	HOP-62	SRB	–	–	–	GI50	-5.47 log M
O=C(Nc1cccnn1)N1CCN([C@@H]2CCOc3cc(C(F)(F)F)ccc32)CC1	PDE6	enzyme activity	–	20 µM	–	inhibition	9%
C=C1CC[C@@]2(O)[C@H]3Cc4ccc(O)c5c4[C@@]2(CCN3CC2CC2)[C@H]1O5	human H+/organic cation antiporter	–	hCMEC/D3	250 µM, 2 min, added: 1 µM DPH preloading 30 min	baseline: control	trans-stimulation ratio	0.58
O=C(NNc1ccc(Cl)c(Cl)c1)c1nnc(C23CC4CC(CC(C4)C2)C3)o1	Fusarium graminearum	fungal growth, inhibitor	–	50 µg/mL	–	inhibition	66.3 ± 0.8%
CNC(=O)c1ccc(Nc2ncc(C(F)(F)F)c(NCc3nccnc3N(C)S(C)(=O)=O)n2)cc1	murine hepatitis virus	viral replication, nanoluciferase reporter	DBT	1 µM, 10 h	baseline: DMSO vehicle	inhibition	38%
CC[C@H](C)[C@@H]1NC(=O)[C@@H]2CCCN2C(=O)[C@H](CC(C)C)NC(=O)[C@H](CC(C)C)NC(=O)CNC(=O)[C@@H](NC(=O)[C@@H](NC(=O)[C@H](CC(=O)O)NC(=O)CNC(=O)[C@@H](NC(=O)[C@H](C)NC(=O)CNC(=O)[C@H](CCCCN)NC(=O)[C@H](CC(C)C)NC(=O)[C@H](CC(C)C)NC(=O)[C@H](CCCCN)NC(=O)CNC(=O)[C@@H](NC(=O)[C@@H](N)CC(C)C)C(C)C)C(C)C)C(C)C)CSSC[C@@H](C(=O)O)NC1=O	–	RNA-seq, item: Dusp1	mouse, traumatic brain injury model, frontal cortex and hippocampus	dose not given	baseline: TBI alone	log2 fold change	-2.36

A few entries again:
Structure (SMILES)	tested on	assay	test system	setting	how to read	quantity	result
CNC(=O)c1ccc(Nc2ncc(C(F)(F)F)c(NCc3nccnc3N(C)S(C)(=O)=O)n2)cc1	murine hepatitis virus	viral replication, nanoluciferase reporter	DBT	1 µM, 10 h	baseline: DMSO vehicle	inhibition	38%
CC[C@H](C)[C@@H]1NC(=O)[C@@H]2CCCN2C(=O)[C@H](CC(C)C)NC(=O)[C@H](CC(C)C)NC(=O)CNC(=O)[C@@H](NC(=O)[C@@H](NC(=O)[C@H](CC(=O)O)NC(=O)CNC(=O)[C@@H](NC(=O)[C@H](C)NC(=O)CNC(=O)[C@H](CCCCN)NC(=O)[C@H](CC(C)C)NC(=O)[C@H](CC(C)C)NC(=O)[C@H](CCCCN)NC(=O)CNC(=O)[C@@H](NC(=O)[C@@H](N)CC(C)C)C(C)C)C(C)C)C(C)C)CSSC[C@@H](C(=O)O)NC1=O	–	RNA-seq, item: Dusp1	mouse, traumatic brain injury model, frontal cortex and hippocampus	dose not given	baseline: TBI alone	log2 fold change	-2.36
